Measured values from different studies.
Every numbered part comes from another study and shows a few of its results, in no order. Several values in a cell are separate wells, animals, samples, runs or records.
Sequence of UniProt Q9UM73 (whole entry, looked up): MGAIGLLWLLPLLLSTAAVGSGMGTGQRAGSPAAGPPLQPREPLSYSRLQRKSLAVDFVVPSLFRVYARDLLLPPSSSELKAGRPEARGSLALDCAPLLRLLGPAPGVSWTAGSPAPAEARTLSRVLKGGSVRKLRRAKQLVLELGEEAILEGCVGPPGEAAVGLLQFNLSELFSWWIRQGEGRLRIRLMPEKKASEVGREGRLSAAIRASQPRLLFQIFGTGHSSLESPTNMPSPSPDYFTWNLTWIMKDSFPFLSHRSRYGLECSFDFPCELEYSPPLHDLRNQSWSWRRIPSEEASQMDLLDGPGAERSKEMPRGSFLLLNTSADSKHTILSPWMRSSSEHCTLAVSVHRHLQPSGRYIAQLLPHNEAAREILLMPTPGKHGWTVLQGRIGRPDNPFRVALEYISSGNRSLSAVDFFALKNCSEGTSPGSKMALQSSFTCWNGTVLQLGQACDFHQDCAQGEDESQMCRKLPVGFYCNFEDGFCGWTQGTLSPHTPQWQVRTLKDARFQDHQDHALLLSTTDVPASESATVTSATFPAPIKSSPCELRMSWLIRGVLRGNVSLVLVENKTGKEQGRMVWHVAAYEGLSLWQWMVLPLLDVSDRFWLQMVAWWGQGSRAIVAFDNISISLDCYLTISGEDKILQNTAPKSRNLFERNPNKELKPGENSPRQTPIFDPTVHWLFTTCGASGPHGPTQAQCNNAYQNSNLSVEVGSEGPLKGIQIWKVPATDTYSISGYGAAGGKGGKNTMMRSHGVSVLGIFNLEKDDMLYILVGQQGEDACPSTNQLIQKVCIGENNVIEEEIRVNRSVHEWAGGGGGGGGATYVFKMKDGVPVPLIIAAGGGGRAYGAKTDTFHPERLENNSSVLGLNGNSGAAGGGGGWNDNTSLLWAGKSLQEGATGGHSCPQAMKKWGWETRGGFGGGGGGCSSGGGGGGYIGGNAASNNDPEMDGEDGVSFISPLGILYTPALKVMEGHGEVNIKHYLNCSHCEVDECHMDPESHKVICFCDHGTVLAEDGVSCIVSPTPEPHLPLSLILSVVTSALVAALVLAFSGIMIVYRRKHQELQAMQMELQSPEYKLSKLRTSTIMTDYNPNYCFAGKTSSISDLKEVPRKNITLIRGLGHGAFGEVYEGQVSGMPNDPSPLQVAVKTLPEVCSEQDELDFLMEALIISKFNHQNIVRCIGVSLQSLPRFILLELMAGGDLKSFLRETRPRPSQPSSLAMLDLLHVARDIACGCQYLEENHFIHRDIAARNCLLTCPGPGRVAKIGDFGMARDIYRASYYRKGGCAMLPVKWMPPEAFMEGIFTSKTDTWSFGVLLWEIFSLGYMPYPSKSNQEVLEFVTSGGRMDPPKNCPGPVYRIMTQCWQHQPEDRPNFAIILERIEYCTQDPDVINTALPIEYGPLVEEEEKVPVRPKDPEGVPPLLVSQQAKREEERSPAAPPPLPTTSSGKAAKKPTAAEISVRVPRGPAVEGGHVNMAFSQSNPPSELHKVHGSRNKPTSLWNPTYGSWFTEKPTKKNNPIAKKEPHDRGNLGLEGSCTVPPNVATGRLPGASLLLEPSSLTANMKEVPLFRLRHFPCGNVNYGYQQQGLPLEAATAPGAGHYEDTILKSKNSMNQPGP
Sequence of UniProt Q12851 (whole entry, looked up): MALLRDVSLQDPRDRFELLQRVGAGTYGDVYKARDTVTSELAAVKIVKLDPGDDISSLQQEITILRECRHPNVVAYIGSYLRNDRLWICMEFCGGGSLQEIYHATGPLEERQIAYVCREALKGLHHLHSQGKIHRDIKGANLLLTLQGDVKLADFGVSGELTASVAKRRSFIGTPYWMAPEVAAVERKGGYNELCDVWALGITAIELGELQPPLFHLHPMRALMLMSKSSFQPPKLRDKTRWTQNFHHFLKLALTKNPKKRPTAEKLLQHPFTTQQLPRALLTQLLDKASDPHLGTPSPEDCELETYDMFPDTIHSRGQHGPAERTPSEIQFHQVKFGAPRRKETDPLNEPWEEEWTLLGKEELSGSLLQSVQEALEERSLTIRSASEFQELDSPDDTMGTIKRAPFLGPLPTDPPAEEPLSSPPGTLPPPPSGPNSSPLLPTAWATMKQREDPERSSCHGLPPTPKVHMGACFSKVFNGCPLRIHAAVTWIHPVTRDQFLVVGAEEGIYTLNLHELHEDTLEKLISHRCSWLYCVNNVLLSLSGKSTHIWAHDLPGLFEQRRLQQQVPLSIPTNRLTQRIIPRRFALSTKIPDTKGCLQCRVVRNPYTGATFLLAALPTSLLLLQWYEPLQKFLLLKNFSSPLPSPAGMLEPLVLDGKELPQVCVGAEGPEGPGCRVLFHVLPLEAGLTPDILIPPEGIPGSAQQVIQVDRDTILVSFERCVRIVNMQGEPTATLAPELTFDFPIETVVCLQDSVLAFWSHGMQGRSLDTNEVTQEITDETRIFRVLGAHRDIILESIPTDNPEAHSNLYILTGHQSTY
Sequence of UniProt P36894 (whole entry, looked up): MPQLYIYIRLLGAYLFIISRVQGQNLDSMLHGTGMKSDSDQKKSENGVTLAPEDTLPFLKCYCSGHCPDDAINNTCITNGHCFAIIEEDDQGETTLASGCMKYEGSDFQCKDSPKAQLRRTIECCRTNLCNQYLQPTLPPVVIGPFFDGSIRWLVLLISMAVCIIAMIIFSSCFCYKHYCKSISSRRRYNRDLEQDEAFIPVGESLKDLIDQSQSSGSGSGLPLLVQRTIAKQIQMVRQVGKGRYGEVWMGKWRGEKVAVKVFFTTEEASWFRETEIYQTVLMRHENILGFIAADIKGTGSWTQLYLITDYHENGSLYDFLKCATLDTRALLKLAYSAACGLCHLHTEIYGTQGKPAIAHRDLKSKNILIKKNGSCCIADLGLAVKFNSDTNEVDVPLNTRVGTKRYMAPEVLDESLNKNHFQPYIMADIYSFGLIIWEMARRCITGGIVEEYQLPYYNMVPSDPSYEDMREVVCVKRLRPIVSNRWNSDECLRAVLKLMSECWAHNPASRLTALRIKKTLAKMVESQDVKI

Series 1
Structure (SMILES): CN1CCC[C@H]1COc1nc2c(c(N3CCN(C(=O)C(F)(F)F)[C@@H](CC#N)C3)n1)CCN(c1cccc3cccc(Cl)c13)C2
Read-out: binding
Action: competitor
Technique: NanoBRET
Cells: HEK293
Measurement: normalized BRET
KRAS Q61R: GTPase KRas (KRAS, Homo sapiens, UniProt P01116, Q61R)
KRAS Q61L: GTPase KRas (KRAS, Homo sapiens, UniProt P01116, Q61L)
target = KRAS Q61R; tested at = 11.1 µM; value = 78% and 87.7% and 98.4%
target = KRAS Q61L; tested at = 1.69 nM; value = 92.8% and 102% and 92.7%
target = KRAS Q61R; tested at = 1.69 nM; value = 107% and 87.7% and 95.4%
target = KRAS Q61L; tested at = 3.7 µM; value = 58.7% and 61.5% and 70.3%
target = KRAS Q61L; tested at = 137 nM; value = 97.2% and 90.4% and 89.7%

Series 2
SMILES: CNc1ncc2cc(-c3cc(OC)cc(OC)c3Cl)c(=O)n(CCc3ccc(NC(=O)C(C#N)=CC(C)(C)N4CCOCC4)cc3)c2n1
Read-out: kinase activity
Measurement: inhibition
target = PDPK1 (Homo sapiens, UniProt O15530); tested at = 1 µM; value = 2%
target = Cyclin-dependent kinase 4, with cyclin D (CDK4, Homo sapiens, UniProt P11802); tested at = 0.1 µM; value = -3%
target = ROCK2 (Homo sapiens, UniProt O75116); tested at = 1 µM; value = -10%
target = DAPK1 (Homo sapiens, UniProt P53355); tested at = 1 µM; value = 0%
target = PIM2 (Homo sapiens, UniProt Q9P1W9); tested at = 1 µM; value = 2%
target = Cyclin-dependent kinase 5, with p25 (CDK5, Homo sapiens, UniProt Q00535); tested at = 0.1 µM; value = -4%
target = ALK (Homo sapiens, UniProt Q9UM73); tested at = 0.1 µM; value = 1%
target = RPS6KA4 (Homo sapiens, UniProt O75676); tested at = 0.1 µM; value = -3%
target = EPHA3 (Homo sapiens, UniProt P29320); tested at = 0.1 µM; value = -1%
target = Cyclin-dependent kinase 6, with cyclin D3 (CDK6, Homo sapiens, UniProt Q00534); tested at = 1 µM; value = 19%
target = FLT3 (Homo sapiens, UniProt P36888); tested at = 0.1 µM; value = 1%
target = JAK3 (Homo sapiens, UniProt P52333); tested at = 0.1 µM; value = -1%
target = STK24 (Homo sapiens, UniProt Q9Y6E0); tested at = 1 µM; value = 14%
target = PAK1 (Homo sapiens, UniProt Q13153); tested at = 0.1 µM; value = 1%
target = PRKACB (Homo sapiens, UniProt P22694); tested at = 1 µM; value = 2%
target = SRPK2 (Homo sapiens, UniProt P78362); tested at = 1 µM; value = -2%
target = MAP4K2 (Homo sapiens, UniProt Q12851); tested at = 1 µM; value = -12%
target = CLK3 (Homo sapiens, UniProt P49761); tested at = 0.1 µM; value = -3%
target = HCK (Homo sapiens, UniProt P08631); tested at = 1 µM; value = 5%
target = NEK6 (Homo sapiens, UniProt Q9HC98); tested at = 1 µM; value = -7%

Series 3
Compound: C[C@@H]1CN(c2ccc(-c3cc(C(=O)NCCOCCOCCOCCOCCOCCOCCNC(=O)/C=C/c4[nH]cc(C(=O)N[C@@H](CC(N)=O)c5ccc(F)c(Cl)c5)c4-c4ccc(Cl)cc4F)ccc3F)cc2NC(=O)c2ccc(F)cc2C(F)(F)F)C[C@H](C)N1C
Read-out: thermal unfolding
Technique: differential scanning fluorimetry
Tested at: 5.5 µM
Direction: higher = more unfolded
Measurement: SYPRO Orange fluorescence
WDR5: WD repeat-containing protein 5 (WDR5, Homo sapiens, UniProt P61964)
DCAF1: DDB1- and CUL4-associated factor 1 (DCAF1, Homo sapiens, UniProt Q9Y4B6)
Sequence of UniProt Q9Y4B6 (whole entry, looked up): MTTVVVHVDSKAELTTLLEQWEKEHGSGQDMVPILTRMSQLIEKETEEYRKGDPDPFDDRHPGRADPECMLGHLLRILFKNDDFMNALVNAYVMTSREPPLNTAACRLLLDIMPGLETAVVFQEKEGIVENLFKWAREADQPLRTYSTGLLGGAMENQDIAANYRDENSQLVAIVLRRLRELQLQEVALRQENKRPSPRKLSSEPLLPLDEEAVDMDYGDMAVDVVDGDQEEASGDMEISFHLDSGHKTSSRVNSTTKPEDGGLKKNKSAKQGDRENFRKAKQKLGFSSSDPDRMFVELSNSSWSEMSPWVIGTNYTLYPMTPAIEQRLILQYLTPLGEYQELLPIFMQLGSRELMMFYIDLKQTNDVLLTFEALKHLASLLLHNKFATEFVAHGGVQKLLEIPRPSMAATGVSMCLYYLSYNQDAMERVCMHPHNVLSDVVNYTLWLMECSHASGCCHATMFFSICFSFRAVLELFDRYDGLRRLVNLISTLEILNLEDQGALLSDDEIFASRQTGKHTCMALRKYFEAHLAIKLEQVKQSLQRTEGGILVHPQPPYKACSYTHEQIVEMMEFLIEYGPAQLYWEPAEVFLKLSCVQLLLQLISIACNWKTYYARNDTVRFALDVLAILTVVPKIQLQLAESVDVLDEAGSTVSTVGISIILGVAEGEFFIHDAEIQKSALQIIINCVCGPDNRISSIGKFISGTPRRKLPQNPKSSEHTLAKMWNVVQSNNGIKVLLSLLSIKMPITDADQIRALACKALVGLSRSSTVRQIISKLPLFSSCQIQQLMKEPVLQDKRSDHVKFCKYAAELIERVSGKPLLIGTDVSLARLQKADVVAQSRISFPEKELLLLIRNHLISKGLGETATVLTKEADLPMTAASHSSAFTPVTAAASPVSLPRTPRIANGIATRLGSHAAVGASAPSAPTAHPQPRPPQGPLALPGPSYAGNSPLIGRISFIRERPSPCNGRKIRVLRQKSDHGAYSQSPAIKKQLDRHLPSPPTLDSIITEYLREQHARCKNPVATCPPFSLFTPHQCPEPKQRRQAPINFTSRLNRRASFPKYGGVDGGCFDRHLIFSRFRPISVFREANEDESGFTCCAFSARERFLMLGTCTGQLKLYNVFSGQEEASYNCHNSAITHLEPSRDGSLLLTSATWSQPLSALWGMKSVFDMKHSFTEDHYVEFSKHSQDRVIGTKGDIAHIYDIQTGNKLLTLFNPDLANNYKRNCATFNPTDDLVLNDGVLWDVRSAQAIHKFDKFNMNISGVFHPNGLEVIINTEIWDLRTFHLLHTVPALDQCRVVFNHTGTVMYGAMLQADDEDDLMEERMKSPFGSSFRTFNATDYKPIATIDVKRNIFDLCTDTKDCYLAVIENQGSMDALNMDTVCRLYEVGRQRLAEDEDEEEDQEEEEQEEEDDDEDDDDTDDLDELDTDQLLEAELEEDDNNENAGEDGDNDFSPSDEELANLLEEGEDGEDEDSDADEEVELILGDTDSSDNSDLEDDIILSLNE
target = WDR5; temperature = 69.41 °C; value = 25400 a.u.
target = WDR5; temperature = 73.21 °C; value = 40800 a.u.
target = DCAF1; temperature = 82.81 °C; value = 37800 a.u.
target = DCAF1; temperature = 34.6 °C; value = 9750 a.u.
target = DCAF1; temperature = 51.2 °C; value = 19300 a.u.
target = DCAF1; temperature = 88.81 °C; value = 33300 a.u.
target = DCAF1; temperature = 38.6 °C; value = 11000 a.u.
target = DCAF1; temperature = 52.2 °C; value = 20800 a.u.
target = WDR5; temperature = 70.41 °C; value = 28800 a.u.
target = WDR5; temperature = 35 °C; value = 13900 a.u.
target = DCAF1; temperature = 84.61 °C; value = 36300 a.u.

Series 4
Structure (SMILES): O=C(O)C1(O)Oc2cc(Cl)ccc2N(Cc2ccccc2)C1=O (stereo not shown)
Measurement: inhibition
organism = Arabidopsis thaliana; assay = hypocotyl length; system = Col-0, seedlings; setting = 100 µg/mL; value = 41.3%
organism = Arabidopsis thaliana; assay = root length; system = Col-0, seedlings; setting = 50 µg/mL; how to read = baseline: water control; value = 52.4%
organism = Arabidopsis thaliana; assay = hypocotyl length; system = Col-0, seedlings; setting = 12.5 µg/mL; value = 3.63%
organism = Arabidopsis thaliana; assay = hypocotyl length; system = Col-0; setting = 100 µg/mL, 7 days, seed germination, dark; value = 41.3%
organism = Arabidopsis thaliana; assay = hypocotyl length; system = Col-0; setting = 12.5 µg/mL, 7 days, seed germination, dark; value = 3.6%
organism = Arabidopsis thaliana; assay = hypocotyl length; system = Col-0; setting = 25.0 µg/mL, 7 days, seed germination, dark; value = 21.1%
organism = Arabidopsis thaliana; assay = root length; system = Col-0, seedlings; setting = 6.25 µg/mL; how to read = baseline: water control; value = 6.36%
organism = Arabidopsis thaliana; assay = root length; system = Col-0, seedlings; setting = 3.125 µg/mL; value = 6.05%
organism = Arabidopsis thaliana; assay = root length; system = Col-0, seedlings; setting = 25 µg/mL; value = 17.2%
organism = Glycine max; assay = fresh weight; setting = soil surface spray, 150 g ai/ha, 21 days, pre-emergence crop safety; value = 8.9% and 8.2% and 9%
organism = Amaranthus retroflexus; assay = fresh weight; setting = 150 g ai/ha, post-emergence treatment; value = 54.6% and 59.7% and 59.4%
organism = Arabidopsis thaliana; assay = root length; system = Col-0, seedlings; setting = 25 µg/mL; how to read = baseline: water control; value = 17.2%
organism = Arabidopsis thaliana; assay = root length; system = Col-0, seedlings; setting = 50 µg/mL; value = 52.4%

Series 5
SMILES: CCC1(c2cccc(-c3cn(C)nc3C)c2)C2=C(Nc3n[nH]cc31)C(F)C(C)(C)CC2=O (single isomer, unassigned)
Tested at: 1 µM
Measurement: remaining binding
target = MAPK15 (Homo sapiens, UniProt Q8TD08); read-out = kinase binding; technique = KINOMEscan; baseline = DMSO control; value = 100%
target = BRSK1 (Homo sapiens, UniProt Q8TDC3); read-out = kinase binding; technique = KINOMEscan; baseline = DMSO control; value = 100%
target = CASK (Homo sapiens, UniProt O14936); read-out = kinase binding; technique = KINOMEscan; baseline = DMSO control; value = 100%
target = NEK5 (Homo sapiens, UniProt Q6P3R8); read-out = binding; technique = competition with immobilised ligand; value = 100%
target = EPHB2 (Homo sapiens, UniProt P29323); read-out = kinase binding; technique = KINOMEscan; baseline = DMSO control; value = 100%
target = NIM1K (Homo sapiens, UniProt Q8IY84); read-out = binding; technique = competition with immobilised ligand; value = 95%
target = MAPKAPK5 (Homo sapiens, UniProt Q8IW41); read-out = binding; technique = competition with immobilised ligand; value = 100%
target = Aurora kinase C (AURKC, Homo sapiens, UniProt Q9UQB9); read-out = kinase binding; technique = KINOMEscan; baseline = DMSO control; value = 100%
target = PIK3CA (Homo sapiens, UniProt P42336, I800L); read-out = kinase binding; technique = KINOMEscan; baseline = DMSO control; value = 58%
target = BMP2K (Homo sapiens, UniProt Q9NSY1); read-out = binding; technique = competition with immobilised ligand; value = 75%
target = FGFR3 (Homo sapiens, UniProt P22607, G697C); read-out = binding; technique = competition with immobilised ligand; value = 100%
target = LTK (Homo sapiens, UniProt P29376); read-out = binding; technique = competition with immobilised ligand; value = 100%
target = BMPR1A (Homo sapiens, UniProt P36894); read-out = binding; technique = competition with immobilised ligand; value = 100%
target = CHUK (Homo sapiens, UniProt O15111); read-out = kinase binding; technique = KINOMEscan; baseline = DMSO control; value = 90%
target = NTRK2 (Homo sapiens, UniProt Q16620); read-out = binding; technique = competition with immobilised ligand; value = 99%

Other studies, line by line
SLC6A19: Sodium-dependent neutral amino acid transporter B(0)AT1 (SLC6A19, Homo sapiens, UniProt Q695T7)
Sequence of UniProt Q695T7 (whole entry, looked up): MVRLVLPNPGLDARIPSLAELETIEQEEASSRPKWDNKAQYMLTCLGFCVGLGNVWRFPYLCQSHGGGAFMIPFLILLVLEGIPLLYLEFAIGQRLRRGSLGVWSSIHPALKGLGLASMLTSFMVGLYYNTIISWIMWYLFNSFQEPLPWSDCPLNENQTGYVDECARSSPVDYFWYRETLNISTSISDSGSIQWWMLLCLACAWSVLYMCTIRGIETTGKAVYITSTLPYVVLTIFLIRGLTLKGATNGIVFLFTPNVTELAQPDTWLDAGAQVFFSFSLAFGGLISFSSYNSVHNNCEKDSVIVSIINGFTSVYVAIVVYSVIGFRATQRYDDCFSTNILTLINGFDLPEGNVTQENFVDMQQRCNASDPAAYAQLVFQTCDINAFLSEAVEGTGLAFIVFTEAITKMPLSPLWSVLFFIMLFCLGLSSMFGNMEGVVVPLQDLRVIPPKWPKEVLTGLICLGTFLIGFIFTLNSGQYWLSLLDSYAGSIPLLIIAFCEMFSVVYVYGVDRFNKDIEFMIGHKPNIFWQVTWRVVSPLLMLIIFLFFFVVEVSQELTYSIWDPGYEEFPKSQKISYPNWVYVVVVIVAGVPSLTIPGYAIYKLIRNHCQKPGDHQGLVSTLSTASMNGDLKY
KRAS G12D GDP-bound: GTPase KRas, GDP-bound (KRAS, Homo sapiens, UniProt P01116, G12D)
Compound = CC(C)NC(=O)COc1ccc(Cl)cc1; target or system = SLC6A19; assay = inhibitor, L-[14C]leucine uptake; system = CHO-BC cells; setting = second repeat; measurement = IC50; value = 14.2 µM
Compound = Cc1ccc(O)c(C)c1-c1cnc2[nH]c(-c3cnc(N4CCC(CN5CCN(c6ccc(NC7CCC(=O)NC7=O)cc6F)CC5)CC4)nc3)cc2c1C#N (stereo not shown); system = male beagle dog, plasma; setting = intravenous, 1 mg/kg; measurement = clearance; value = 6.1 mL/min/kg
Compound = Cc1ncsc1-c1ccc(C2(NC(=O)C3CC(O)CN3C(=O)C(NC(=O)c3ccc(COc4c(-c5c(C)c(F)cc6[nH]ncc56)c(C5CC5)cc5c(N6CC7CC6CN7)nc(OC6CCOCC6)nc45)cc3)C(C)C)CC2)cc1 (stereo not shown); target or system = KRAS G12D GDP-bound; assay = binder, single-cycle SPR; setting = binary, without VCB; measurement = dissociation rate constant (kd); value = 0.00941 s⁻¹ and 0.0101 s⁻¹ and 0.00883 s⁻¹
Compound = Cc1ccc(O)c(C)c1-c1cnc2[nH]c(-c3cnc(N)nc3)cc2c1C#N; system = Sprague-Dawley rat, male, plasma; setting = oral, dose not given; measurement = oral bioavailability; value = 51.9%
Compound = CCN1CCN(Cc2ccc(COc3c(-c4c(C)c(F)cc5[nH]ncc45)c(C4CC4)cc4c(N5C[C@@H]6C[C@H]5CN6)nc(OC5CCOCC5)nc34)cc2)C(=O)C1; target or system = AsPC-1 (KRAS G12D); assay = CellTiter-Glo; setting = 1 µM; measurement = viability; value = 16.3% and 19.4% and 18.7% and 17.6%
Compound = Cc1ccc(O)c(C)c1-c1cnc2[nH]c(-c3cnc(N4CCC5(CC4)CC(N4CCN(c6ccc(NC7CCC(=O)NC7=O)cc6F)CC4)CO5)nc3)cc2c1C#N (stereo not shown); system = female CD-1 mouse, plasma; setting = oral, 20 mg/kg; measurement = Cmax; value = 948 ng/mL
Compound = Cc1ncsc1-c1ccc(C2(NC(=O)C3CC(O)CN3C(=O)C(NC(=O)c3ccc(COc4c(-c5c(C)c(F)cc6[nH]ncc56)c(C5CC5)cc5c(N6CC7CC6CN7)nc(OC6CCOCC6)nc45)cc3)C(C)(C)C)CC2)cc1 (stereo not shown); target or system = KRAS G12D GDP-bound; assay = SPR, single-cycle; system = immobilized KRAS G12D; setting = binary, geometric mean; measurement = koff; value = 0.0156 s⁻¹
Compound = Cc1ccc(O)c(C)c1-c1cnc2[nH]c(-c3cnc(N4CCC(CN5CCN(c6ccc7c(c6)C(=O)N(C6CCC(=O)NC6=O)C7=O)CC5)CC4)nc3)cc2c1C#N (stereo not shown); target or system = PKMYT1 (Homo sapiens, UniProt Q99640); assay = protein degradation, degrader, immunoblotting; system = HCC1569; setting = 24 h; measurement = DC50; value = 0.001 µM
Compound = CCNC(=O)COc1cc(C)c(Cl)c(C)c1; target or system = SLC6A19; assay = inhibitor, FLIPR membrane potential; system = CHO-BC cells; setting = 30 µM; measurement = normalised transport activity; value = 0.488

Excerpt of the above (series 1):
target = KRAS Q61R; tested at = 11.1 µM; value = 78% and 87.7% and 98.4%
target = KRAS Q61L; tested at = 1.69 nM; value = 92.8% and 102% and 92.7%
target = KRAS Q61R; tested at = 1.69 nM; value = 107% and 87.7% and 95.4%
target = KRAS Q61L; tested at = 3.7 µM; value = 58.7% and 61.5% and 70.3%
target = KRAS Q61L; tested at = 137 nM; value = 97.2% and 90.4% and 89.7%
